Experimental data collected from several papers.
Each line is one published result; not all experiments were run side by side. Numbers after ± are the reported error. Values after ≈ are worked out from the molar mass of the structure shown.

SMILES | organism | assay | system | setting | how to read | endpoint | result
COC(=O)C1=CO[C@@H](C)[C@@H]2Cn3ccc4c5ccccc5nc-4c3C[C@H]12 | Plasmodium falciparum | parasite growth, [3H]-hypoxanthine incorporation | FCR3 drug-resistant | 48 h | relative to: 3D7 over FCR3 | IC50 fold decrease | 2 to 6 fold
CCC1c2cc(OC)c(O)cc2C(c2ccc(O)c(OC)c2)C1C (stereo not drawn) | Spodoptera frugiperda | insecticidal activity | larvae | topical | – | LD50 | 2830 mg/kg
CCCCCCCCCCCCCC(=O)N[C@H](CCN)C(=O)N[C@@H]1C(=O)N[C@@H](CCN)C(=O)N[C@@H](CC(C)C)C(=O)N[C@@H](CCN)C(=O)N[C@H](Cc2ccccc2)C(=O)N[C@@H](CC(C)C)C(=O)N[C@@H](CCN)C(=O)N[C@H](Cc2ccc(O)cc2)C(=O)N[C@@H](C(C)C)C(=O)N[C@@H](CC(=O)O)C(=O)O[C@@H]1C | ESKAPE pathogens | – | – | concentration not given | relative to: MIC with serum over without | MIC fold change with serum | 4 fold
CC(=O)Nc1cccc(CNC(=O)c2cnc3ccccc3c2C(F)(F)F)c1 | Drosophila melanogaster | – | APP transgenic (Alzheimer model) | in food, 100 µM, 168 h, from adult day 7 | – | median survival | 40 days
CC[C@H](C)[C@H](NC(=O)[C@H](CCCCN)NC(=O)[C@H](CCCCN)NC(=O)[C@H](CC(C)C)NC(=O)[C@H](CCCCN)NC(=O)[C@H](CCC(=O)O)NC(=O)[C@H](CCCCN)NC(=O)[C@@H](NC(=O)[C@H](CCCCN)NC(=O)[C@H](CC(N)=O)NC(=O)[C@H](CCCNC(=N)N)NC(=O)[C@H](Cc1ccccc1)NC(=O)[C@H](CCCCN)NC(=O)[C@H](CCCNC(=N)N)NC(=O)[C@H](CC(C)C)NC(=O)[C@H](CCCNC(=N)N)NC(=O)[C@H](CCCCN)NC(=O)[C@H](CCCNC(=N)N)NC(=O)[C@@H](N)CC(C)C)[C@@H](C)CC)C(=O)NCC(=O)N[C@@H](CCC(N)=O)C(=O)N[C@@H](CCCCN)C(=O)N[C@H](C(=O)N[C@@H](CCC(N)=O)C(=O)NCC(=O)N[C@@H](Cc1ccccc1)C(=O)N[C@H](C(=O)N1CCC[C@H]1C(=O)N[C@@H](CCCCN)C(=O)N[C@@H](CC(C)C)C(=O)O)C(C)C)[C@@H](C)CC | Streptococcus salivarius | inhibition zone | ATCC 1.2498 | LB agar, overnight | – | lethal concentration | 2.66 µM
CC(=O)O[C@@H]1C[C@@H](C)O[C@H]2O[C@@H]3C[C@@H]4CC[C@@H]5[C@H](CC[C@]6(C)[C@@H](C7=CC(=O)OC7)CC[C@]56O)[C@@]4(C)C[C@H]3O[C@]21O | Schistosoma mansoni | microscopic viability score | adult worms | 1 µM, 72 h | – | viability effect | 99%
CC1(C)CC[C@]23CC[C@]4(C)[C@H](CC[C@@H]5[C@@]6(C)CCCNC(C)(C)[C@@H]6CC[C@]54C)[C@H]2[C@H]1OC3 | Human cytomegalovirus | – | HFF, AD169 | – | relative to: CC50 over EC50 | selectivity index | < 3
CCC1(O)C([N+](=O)[O-])=NNc2nc(C)nn21 (stereo not drawn) | coxsackievirus B3 | – | Vero, Nancy | – | relative to: CC50 over IC50 | selectivity index | 2
N=C(N)NCCC[C@H](NC(=O)[C@H](CCCNC(=N)N)NC(=O)[C@H](CCCNC(=N)N)NC(=O)[C@H](CCC(N)=O)NC(=O)[C@H](CCCNC(=N)N)NC(=O)[C@H](CCCNC(=N)N)NC(=O)[C@H](CCCCN)NC(=O)[C@H](CCCCN)NC(=O)[C@H](CCCNC(=N)N)NC(=O)CNC(=O)[C@H](Cc1ccc(O)cc1)NC(=O)CNC(=O)CNC(=O)[C@@H]1CCCCNC(=O)CCC(=O)N[C@@H](CCCNC(=N)N)C(=O)N[C@@H](CC(N)=O)C(=O)NCC(=O)N[C@@H](CCC(N)=O)C(=O)N[C@@H](CS)C(=O)N[C@@H](CCC(N)=O)C(=O)N[C@@H](CCCNC(=N)N)C(=O)N[C@@H](CCCCN)C(=O)N1)C(N)=O | Trypanosoma cruzi | – | H1, BALB/c mouse, Trypanosoma cruzi infection | intraperitoneal, 1.5 mg/kg/day, day 24 | – | survival | 80%
CON(C(=O)c1cn(C)nc1C(F)F)C(C)Cc1c(Cl)cc(Cl)cc1Cl (stereo not drawn) | Ustilaginoidea virens | microbial growth | – | 1.56 µg/mL | – | inhibition | 100%
C=CCc1ccc(OCC=C(C)C)c(OC)c1 | Spodoptera frugiperda | – | – | topical, larvae | – | LD50 | < 1000 mg/kg
O=C(C1CCN(c2nnnn2-c2ccccc2)CC1)N1CCCc2ccccc21 | Plasmodium falciparum | – | Dd2 PfeEF2 mutant | – | relative to: wild-type Dd2 | IC50 fold shift | 1.8 fold
C=C(C)[C@@H]1CC[C@]2(CO)CC[C@]3(C)[C@H](CC[C@@H]4[C@@]5(C)CCCNC(C)(C)[C@@H]5CC[C@]43C)[C@@H]12 | Human alphaherpesvirus 1 | – | HFF, E-377 | – | relative to: CC50 over EC50 | selectivity index | < 4
CC[C@H](C)[C@H](N)C(=O)NCC(=O)NCC(=O)N[C@@H](CCCCN)C(=O)N[C@@H](CC(N)=O)C(=O)NCC(=O)NCC(=O)N[C@@H](Cc1c[nH]c2ccccc12)C(=O)N[C@@H](Cc1c[nH]c2ccccc12)C(=O)NCC(=O)N[C@@H](CCCCN)C(=O)N[C@H](C(=O)N[C@@H](CCCNC(=N)N)C(=O)N[C@@H](Cc1c[nH]c2ccccc12)C(=O)NCC(=O)N[C@@H](CC(C)C)C(=O)N[C@@H](CC(C)C)C(=O)N[C@@H](CO)C(=O)N[C@@H](CC(C)C)C(=O)N[C@H](C(=O)N[C@@H](CCCCN)C(=O)NCC(=O)N[C@H](C(=O)N[C@@H](C)C(=O)NCC(=O)N[C@@H](CCC(N)=O)C(=O)N[C@@H](CCCNC(=N)N)C(=O)N[C@@H](CC(C)C)C(=O)N[C@@H](CC(C)C)C(=O)O)[C@@H](C)CC)[C@@H](C)CC)C(C)C | Gram-negative bacteria | MIC | – | concentration not given | – | antibacterial activity | active
CC(C)C[C@@H]1NC(=O)[C@H](CCCCN)NC(=O)[C@H](C(C)C)NC(=O)[C@@H]2CCCN2C(=O)[C@@H](Cc2ccc(O)cc2)NC(=O)[C@H](CC(C)C)NC(=O)[C@H](CCCCN)NC(=O)[C@H](C(C)C)NC(=O)[C@H](CCCCN)NC(=O)[C@H](CC(C)C)NC(=O)[C@@H]2CCCN2C(=O)[C@@H](Cc2ccc(O)cc2)NC(=O)[C@H](C(C)C)NC1=O | Gram-negative bacteria | – | – | 24 h, 7 strains | – | MIC geometric mean | 70.7 µg/mL (≈ 45.8 µM)
C=CCc1ccc(OCc2ccccc2)c(OC)c1 | Spodoptera frugiperda | – | larvae | 1000 µg/mL | relative to: untreated control | antifeedant index | 52.7%
CC(=O)c1c(O)c(C)c(O)c2c1OC1=CC(=O)/C3=C(/C)N[C@H](C(=O)O)CC1=CC=CC=C[C@@]2(C)C3=O | Candida tropicalis | – | – | – | – | MFC/MIC ratio | 63.5
CS(=O)(=O)c1ccc(/C=N/NC(=O)Cn2ccc(=O)c3ccccc32)cc1 | Bipolaris maydis | microbial growth | – | 50 µg/mL | – | inhibition | 8.9%
CCCCCCCC(=O)N[C@@H](CCCN)C(=O)N[C@@H](CCCN)C(=O)N[C@@H](CC(C)C)C(=O)N[C@@H](CC(C)C)C(=O)N[C@@H](CCCN)C(=O)N[C@@H](CCCN)C(=O)N[C@@H](CC(C)C)C(=O)N[C@@H](CCCN)C(=O)N[C@@H](CCCN)C(=O)N[C@@H](CC(C)C)C(N)=O | Staphylococcus aureus, Escherichia coli | – | – | – | relative to: S. aureus over E. coli | MIC ratio | 4
CC(=O)O[C@@H]1C[C@@H](C)O[C@H]2O[C@@H]3C[C@@H]4CC[C@@H]5[C@H](CC[C@]6(C)[C@@H](C7=CC(=O)OC7)CC[C@]56O)[C@@]4(C=O)C[C@H]3O[C@]21O | Schistosoma mansoni | microscopic viability score | adult worms | 0.1 µM, 72 h | – | viability effect | 26.5%
COc1ccc(-n2c(SCC#N)nnc2[C@H](Cc2ccccc2)NC(=O)Cc2c(C)[nH]c3ccccc23)cc1 | HIV-1 NL4-3 | single-round infection | – | 5 µM, late stage | relative to: untreated | infection | 6.82 ± 4.73%
C=CCc1ccc(OCC(=C)C)c(OC)c1 | Spodoptera frugiperda | – | larvae | 250 µg/mL | relative to: untreated control | antifeedant index | 56.7%
CC(C)C[C@@H]1NC(=O)[C@H](CCCCN)NC(=O)[C@@H]2CCCN2C(=O)[C@@H](Cc2ccc(O)cc2)NC(=O)[C@H](CCCCN)NC(=O)[C@H](C(C)C)NC(=O)[C@H](CC(C)C)NC(=O)[C@H](CCCCN)NC(=O)[C@H](C(C)C)NC(=O)[C@@H]2CCCN2C(=O)[C@@H](Cc2ccc(O)cc2)NC(=O)[C@H](CC(C)C)NC(=O)[C@H](CCCCN)NC(=O)[C@H](C(C)C)NC(=O)[C@H](CCCCN)NC1=O | Gram-negative bacteria | – | – | 24 h, 7 strains | – | MIC geometric mean | 32 µg/mL (≈ 17.8 µM)
CC[C@H](C)[C@H](NC(=O)[C@H](CCCCN)NC(=O)[C@H](CCCCN)NC(=O)[C@H](CC(C)C)NC(=O)[C@H](CCCCN)NC(=O)[C@H](CCC(=O)O)NC(=O)[C@H](CCCCN)NC(=O)[C@@H](NC(=O)[C@H](CCCCN)NC(=O)[C@H](CC(N)=O)NC(=O)[C@H](CCCNC(=N)N)NC(=O)[C@H](Cc1ccccc1)NC(=O)[C@H](CCCCN)NC(=O)[C@H](CCCNC(=N)N)NC(=O)[C@H](CC(C)C)NC(=O)[C@H](CCCNC(=N)N)NC(=O)[C@H](CCCCN)NC(=O)[C@H](CCCNC(=N)N)NC(=O)[C@H](CC(C)C)NC(=O)CN)[C@@H](C)CC)C(=O)NCC(=O)N[C@@H](CCC(N)=O)C(=O)N[C@@H](CCCCN)C(=O)N[C@H](C(=O)N[C@@H](CCC(N)=O)C(=O)NCC(=O)N[C@@H](Cc1ccccc1)C(=O)N[C@H](C(=O)N1CCC[C@H]1C(=O)N[C@@H](CCCCN)C(=O)N[C@@H](CC(C)C)C(=O)N[C@@H](C)C(=O)N1CCC[C@H]1C(=O)N[C@@H](CCCNC(=N)N)C(=O)N[C@H](C(=O)N[C@@H](CC(=O)O)C(=O)N[C@@H](Cc1ccc(O)cc1)C(=O)O)[C@@H](C)O)C(C)C)[C@@H](C)CC | Staphylococcus warneri | inhibition zone | ATCC 1.2824 | LB agar, overnight | – | lethal concentration | 1.38 µM

For quick reference, copied from above:
SMILES | organism | assay | system | setting | how to read | endpoint | result
CCC1c2cc(OC)c(O)cc2C(c2ccc(O)c(OC)c2)C1C (stereo not drawn) | Spodoptera frugiperda | insecticidal activity | larvae | topical | – | LD50 | 2830 mg/kg
